# Assay results collected from several papers.
# Numbered parts are unrelated; each lists some results of a single study. Changes are numbered by the printed parent chain.
# Chain of UniProt Q00536 (whole entry, looked up): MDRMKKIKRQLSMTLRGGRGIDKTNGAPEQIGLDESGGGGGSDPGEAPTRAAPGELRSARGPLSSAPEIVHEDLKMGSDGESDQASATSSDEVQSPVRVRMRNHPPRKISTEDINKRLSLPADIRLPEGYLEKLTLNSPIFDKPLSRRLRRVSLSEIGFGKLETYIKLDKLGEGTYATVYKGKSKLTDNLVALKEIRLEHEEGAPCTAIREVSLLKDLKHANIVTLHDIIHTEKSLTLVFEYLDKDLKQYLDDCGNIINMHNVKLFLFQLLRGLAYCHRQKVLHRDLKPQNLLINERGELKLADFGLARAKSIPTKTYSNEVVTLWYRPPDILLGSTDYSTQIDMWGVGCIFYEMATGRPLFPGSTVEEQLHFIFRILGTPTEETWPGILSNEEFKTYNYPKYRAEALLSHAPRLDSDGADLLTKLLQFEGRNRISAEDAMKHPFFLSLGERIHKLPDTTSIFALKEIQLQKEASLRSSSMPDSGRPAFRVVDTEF

# Block 1 — technique: RNA Bind-n-Seq; form: RNA; sample: in vitro; concentration: not given; relative to: input RNA pool; direction: higher = stronger binding
# Target: RING finger protein unkempt homolog, zinc fingers 1-6, GST-SBP tag (UNK, Homo sapiens, UniProt Q9C0B0, residues 30-357)
# Notes: RNA with constant flanks, human-mouse chimeric sites, ends assumed
# Shared flanks, not repeated: GGGAGUUCUACAGUCCGACGAUC … CAACAGAGGAUUGAGCAUCA
# Residues (chain): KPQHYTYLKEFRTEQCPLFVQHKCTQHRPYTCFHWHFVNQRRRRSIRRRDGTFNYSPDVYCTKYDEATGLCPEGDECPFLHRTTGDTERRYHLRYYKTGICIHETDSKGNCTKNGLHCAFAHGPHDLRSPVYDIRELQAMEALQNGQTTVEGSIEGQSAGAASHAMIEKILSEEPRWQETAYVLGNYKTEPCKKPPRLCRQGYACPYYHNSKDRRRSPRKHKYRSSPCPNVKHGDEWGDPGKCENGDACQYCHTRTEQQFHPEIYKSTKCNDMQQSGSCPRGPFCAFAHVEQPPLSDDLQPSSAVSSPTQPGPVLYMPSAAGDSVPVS
Sequence,bound/input enrichment
GGAAGUACAUUAAUGGAGAUUGAUGGUGACAAAGGCAAGCAGGGCGGGCCCACCUACUACAUAGACACCAAUGCCCUCCGCGUGCCCAGGGAGAAUAUGGAGGCCAUCUCACCACUCAAG,0.241 ratio
GUACUGCAGCAGCAGGGAAAACUGCAGGAAGCUCUGAUGCAUUAUAAGGAGGCUAUUCGAAUCAGUCCUACAUUUGCUGAUGCUUAUUCUAAUAUGGGAAACACUCUAAAGGAGAUGCAG,0.182 ratio
ACUCUUGACUCUUUCCAUUCUCGUCCCUUCCCUCUUGAUAUUCAAGGCCAUGAAUCCCAAAAUAACAGUCUUAGUGGGAGGCUAGCAAACAGAGGUGGAAUAAAUCCACCCCAGUGUCUC,0.418 ratio
ACCUCCCCCUCCCGCCUCACCCCACCCCCGCUUUUUGGAAAGUUUUUGGCGUUUCUUUUCCUUCCCCAUACAAAGUGAUUACAGUUUCCCCCGCAAGUGGGGCUUGAAGGGCUUGACGGA,1.32 ratio
CGCUGGCCCAAGCUGAUGGACUCUGAUGGCCUCCAUCAAGGUAUUAUGUGUGCCUUCUCUUAGUUAUUGUUUUCGGGAUGUUAUGAAUCUCAGUACUGUGGUUUGAAAGCACCAGCUUUG,15.6 ratio
CUGGCACUCUAUCAGAUAUAUUAAUUUUUUAAUGUAGAUGUAAUUUUAAAAAUGAAUGGCUACUUUACGUGAUAGAUUAGGCUCUUACUAUAUAUGUGUACAUAUGUAUAUAUAUAUAUA,2.31 ratio
CCUCUGCUUCCGCACUCAGCCUGGGGACACUGGGCUGGGACCAGAAUCCAGCUUUCUUUUAAAACUCUCAGUGUAACUGUAUCCCGUGACAUUUCAUUUUUUUUAAAUAGUGUAUUUUUU,3.44 ratio
GGAUUCCGCUUCCGGUUGGCCUCCAUCCGGUUCUCUCCUGAGCUACGUGUCUCUACGCUCUCAAUCCGCCAUCCAACAAACAUGGAUCAGGUAAUGCAGUUUGUGGAGCCCAGCCGGCAG,0.0968 ratio

# Block 2 — target: CEBPA, bZIP domain (human); technique: DHFR protein complementation; sample: yeast; relative to: wild-type JUN-FOS pair; direction: higher = stronger binding
# Notes: single substitutions, most at no-binding floor
# Starting sequence: JUN, bZIP domain (human); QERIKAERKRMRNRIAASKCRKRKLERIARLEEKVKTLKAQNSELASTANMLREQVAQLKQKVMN; partner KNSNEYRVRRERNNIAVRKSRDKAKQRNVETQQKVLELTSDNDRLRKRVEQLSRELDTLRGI
Variant,binding fitness
T48E,-1.37 natural log
I28T,-1.35 natural log
L45K,-1.57 natural log
A29H,-1.06 natural log
A29F,-1.34 natural log
V35K,-1.51 natural log
R53I,-1.36 natural log
A40E,-1.34 natural log

# Block 3 — technique: protein-binding microarray; form: double-stranded DNA, one strand shown; sample: in vitro; concentration: 250 nM; notes: 60-bp whole probe; with: salmon DNA 0.4 mg/ml; relative to: random background probes; direction: higher = stronger binding; shared flanks, not repeated: GCCTAGCAC … GTCTTGATTCGCTTGACGCTGCTG
# Target: Interferon regulatory factor 7, full length, phosphomimetic (IRF7, Homo sapiens, UniProt Q92985, residues 1-503, S101K/S471D/S472D/S475D/S476D/S477D/S483D/S484D/S487D)
# Chain of UniProt Q92985 (whole entry, unmodified, looked up): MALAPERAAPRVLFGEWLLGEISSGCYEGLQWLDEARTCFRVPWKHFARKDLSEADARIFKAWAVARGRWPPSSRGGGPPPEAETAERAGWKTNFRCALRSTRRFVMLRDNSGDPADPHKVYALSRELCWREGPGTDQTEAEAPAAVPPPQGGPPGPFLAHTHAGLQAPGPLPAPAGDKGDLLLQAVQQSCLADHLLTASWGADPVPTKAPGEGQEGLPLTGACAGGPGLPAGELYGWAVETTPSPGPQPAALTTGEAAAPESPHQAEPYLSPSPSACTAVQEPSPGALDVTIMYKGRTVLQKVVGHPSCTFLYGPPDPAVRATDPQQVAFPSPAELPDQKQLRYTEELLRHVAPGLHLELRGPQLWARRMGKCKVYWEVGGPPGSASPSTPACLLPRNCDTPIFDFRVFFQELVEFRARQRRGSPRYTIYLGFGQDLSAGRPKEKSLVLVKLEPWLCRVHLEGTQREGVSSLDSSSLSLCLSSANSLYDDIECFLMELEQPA
Sequence,log fluorescence [z-score]
TTAGGACTGGACACTGGGTCAGTGCTA,-0.663
TTAGATGTCAGTCTCGATTAGTGCTAG,1.1
GACGGACTGGACTATCGGAACGTGCTA,-0.532
GACGGCATCGGGTATCGGGACGTGCTA,-0.596
TCATCTTTCTAATTCAAACTGTGCTAG,1.35
GACGGTCTCATTATCCTGACGTGCTAG,0.645
TTAGGTTTCGGGATCGGTTAGTGCTAG,7.8
TTAGGACTGGACTATCGGATAGTGCTA,0.0125

# Other studies, line by line
SMILES,target,assay,conditions,measurement,value
Cn1nc(C(F)(F)F)cc1-c1cnc(N2CCc3cc(S(=O)(=O)Nc4c(F)cc(Cl)cc4F)cc(N4CCCC4=O)c32)nc1,"Cyclin-dependent kinase 16 (CDK16, Homo sapiens, UniProt Q00536)","cell-free assay, competition with immobilised ligand",1 µM,remaining binding,77%
